Measurements from different studies.
Numbered parts are unrelated; each lists some results of a single study.

Series 1
Target: Interferon regulatory factor 5, full length, phosphomimetic (IRF5, Homo sapiens, UniProt Q13568-2, residues 1-514, K96S/S451D/S453D/S456D/S462D)
Method: protein-binding microarray
Form: double-stranded DNA, one strand shown
Medium: in vitro
Tested at: 250 nM
Setting: 60-bp whole probe
With: salmon DNA 0.4 mg/ml
Reference: random background probes
Direction: higher = stronger binding
Shared flanks, not repeated: GCCTAGCAC … GTCTTGATTCGCTTGACGCTGCTG
Strand | log fluorescence [z-score]
GACGGTCTCGGACTGTGGACGTGCTAG | -0.318
TCATGACTCTTTCTGTCACTGTGCTAG | 2.81
TTAGCTATCGGGTTTCGATTAGTGCTA | 7.84
TATGTTCCTTATTTAAGACCGTGCTAG | 0.454
TTAGGTTTCCTTATCCTGTAGTGCTAG | 0.92
GACGGTGTCGACTTTCGGGACGTGCTA | 4.4
GACGAACTGCGGACTGGAGACGTGCTA | -0.6
TCTGCTTTGCCTTCAGCCCGGTGCTAG | -0.111
TCACTTCCATTTTCTGAAACTGTGCTA | 2.27
TTAGATCTCGGGTTTCGATTAGTGCTA | 6.48
TACTTTCTACGTCTGATTTTGTGCTAG | 4.73
TTAGGTATCGACACTGGGTGAGTGCTA | 2.34
TCAGGTTTCGACTATCGGTTAGTGCTA | 9.25
GACGATATCGGGTTTCGAGTCGTGCTA | 4.28
GCACTTTTCCCCCTAGTTGTGTGCTAG | 0.755
GACGAACTGGGGTTTCGCGACGTGCTA | -0.105
TTAGATTTCAGTATCGATCAGTGCTAG | 7.91
TCACAGTTGAGTTCTGTTACTGTGCTA | 0.155
GACGATTTCGGGACTGGAAACGTGCTA | 1.96

Series 2
Target: Histone acetyltransferase KAT6A, winged helix 2, GST fusion (KAT6A, Homo sapiens, UniProt Q92794, residues 85-181)
Method: protein binding microarray
Form: double-stranded DNA, one strand shown
Medium: in vitro
Tested at: not given
Setting: 8-mer, flanks averaged, mean of 2 arrays, mostly near background
Reference: not given
Direction: higher = stronger binding
Residues (chain): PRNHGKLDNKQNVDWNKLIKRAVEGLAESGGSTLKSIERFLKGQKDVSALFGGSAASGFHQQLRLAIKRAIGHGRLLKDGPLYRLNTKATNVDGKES
Strand | E-score
GACAGATA | -0.00196
CGCTGATA | 0.0479
CCGATGAC | 0.0366
ATGGTGCA | 0.00475
GGGAGACC | -0.146
AGGTGTAC | -0.0654
CTCCCCTA | -0.0196
TAAATGGA | -0.0603
AAAATTAT | 0.134
GCAGAACA | 0.0122
ACTACTAT | 0.00213
GCCAACTA | -0.0786
CGGGTCCC | 0.00539
ACTCTTTC | -0.122
CGTCGCAA | 0.107
CATTGCCA | 0.0857
CATGGTCA | -0.0112

Series 3
Target: RNA binding protein fox-1 homolog 2, RRM domain, GST-SBP tag (RBFOX2, Homo sapiens, UniProt O43251-10, residues 100-194)
Method: RNA Bind-n-Seq
Form: RNA
Medium: in vitro
Tested at: 365 nM
Setting: natural RNA segment, single round, ends assumed
Reference: no-protein control
Direction: higher = stronger binding
Construct (chain): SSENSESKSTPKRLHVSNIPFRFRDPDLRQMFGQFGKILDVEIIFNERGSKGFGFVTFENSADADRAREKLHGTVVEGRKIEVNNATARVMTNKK
Strand | RBNS enrichment (R)
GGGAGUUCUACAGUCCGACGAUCAAAGAGUUUCACUAUUUUGGAUAUAUUCUAAAGUGGACCUGAGCUAUUUGAGCAAAUAAUGAUAGGGCAUACUCAGACAUUUUAGCUACCUUUUAUACCUACGAUUUCAUUGGAAUUCUCGGGUGCCAA | 0.399
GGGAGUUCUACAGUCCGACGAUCUCCAGGAGCCAGUUGAGCCAGGGCAGCCACAUCCAGGCGUCUCCCUACCCUGGCUCUGCCAUCAGCCUUGAAGGGCCUCGAUGAAGCCUUCUCUGGAACCACUCCAGCCCUGGAAUUCUCGGGUGCCAA | 0.339
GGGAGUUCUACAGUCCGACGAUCAGCCACCCUUUGCCCAAACCCUGGUAGCUCGGGGAAGCUUGGCUUAAGGCUGCACGCCUCCAAUCCCCCAAAGGGUAGGAUCCUGGCUGGGUCCAGGGUUCCUCUGAUUUUGGAAUUCUCGGGUGCCAA | 0.221
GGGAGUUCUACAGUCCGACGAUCUGGAUAAACAAAUGCUUGUUGAUAGCCUUUUUCUAUCAAGAAACCAAGGAGCUAAUUAUUAAUAACAAUCAUUGCACACUGAGUCUUAGCGUUUCUGAUGGAAACAGUUUUGGAAUUCUCGGGUGCCAA | 0.709
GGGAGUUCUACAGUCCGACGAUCAGUUGUGGGUUUGUAGGUGCGAGUUUGAAGAGGAAAAGAGGAAGGGGGUUAUAUUUCUAAGUGAUUUACAAUUUCUGUUUCUAAAAUUGUUGGGAUUUAGAAAUGUUUCAUGGAAUUCUCGGGUGCCAA | 0.944
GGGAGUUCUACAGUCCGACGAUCUCUGUGACUCACCUGCCCUUCCUUCCCCCCUUGGCCCUAGCCGUGCCUCGUCCCACUAUGCACAGAUUGAAACUUCACCUACAAACCUGUUAGUGUGAUCUGUGGAGAAUUGGAAUUCUCGGGUGCCAA | 0.672
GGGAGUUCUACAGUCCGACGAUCCUUUUUUUAAAAAAGAGAGAAAAGAAAAACUAGUUGGUGGACAUGGUGGGUGACACGCCUUUAAUCUCAGCACUUGGGAGGAAGAGGCAGGUGAAUCUCUGGGUUAGGACUGGAAUUCUCGGGUGCCAA | 0.607
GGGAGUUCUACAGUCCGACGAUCUUCUAAAUUUAGUGAUAUGGUAAUGAAAUUGGUAUUUAUUUUAAAUAUUAGUUAUUCUAAGGAGAAAAAAAUGCUUCUGCAAGAUUUUCAUAAUUCAGGGGCUGUGGAUAUGGAAUUCUCGGGUGCCAA | 0.696

Series 4
Target: Ras GTPase-activating protein-binding protein 1, full length (G3BP1, Homo sapiens, UniProt Q13283)
Sequence of UniProt Q13283 (whole entry, looked up): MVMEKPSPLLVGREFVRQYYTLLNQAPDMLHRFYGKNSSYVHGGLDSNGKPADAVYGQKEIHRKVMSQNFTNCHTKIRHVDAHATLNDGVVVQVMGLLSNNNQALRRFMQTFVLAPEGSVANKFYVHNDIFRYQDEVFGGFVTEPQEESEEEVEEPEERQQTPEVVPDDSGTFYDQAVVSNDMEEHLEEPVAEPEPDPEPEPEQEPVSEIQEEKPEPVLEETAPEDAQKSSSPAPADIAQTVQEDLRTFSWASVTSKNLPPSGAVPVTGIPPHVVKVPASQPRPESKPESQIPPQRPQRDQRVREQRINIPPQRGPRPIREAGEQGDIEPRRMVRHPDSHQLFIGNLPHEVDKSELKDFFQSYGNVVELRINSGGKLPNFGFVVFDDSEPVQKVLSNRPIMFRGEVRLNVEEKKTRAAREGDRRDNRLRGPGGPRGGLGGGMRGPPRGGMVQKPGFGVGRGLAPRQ
Method: RNA Bind-n-Seq
Form: RNA
Medium: in vitro
Tested at: 200 nM
Setting: whole 134-nt RNA, ends assumed
With: 150 mM KCl
Reference: input library
Direction: higher = stronger binding
Strand | log2 enrichment
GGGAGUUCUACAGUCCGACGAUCCUCAAGUCCUGUGCUACACAUCGUAUGUACCGAAUCGGUUUUUUUGGAGGAGGAAAGUAUUAUGUUACGCCGUUCGGAUCUGCACUUCCAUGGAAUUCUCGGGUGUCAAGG | -0.409
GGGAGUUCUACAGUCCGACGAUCGCAGGAAGUAAAAACAAAUGGAAAUGCUUCGGAUAGUGGCAGGGGUGGGGGUUGCUAAGGAAAGGGUGGGCUGGGAGUGGGUAAAGAGUUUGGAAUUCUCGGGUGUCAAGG | 0.821
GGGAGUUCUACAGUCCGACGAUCGUCCUGUGCUACACAUCGUAUGUACCGAAUCAAAUUUAAACCCCCCCAAAUUUUUAAAAAAGUAUUAUGUUACGCCGUUCGGAUCUGCACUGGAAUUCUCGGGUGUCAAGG | 0.228
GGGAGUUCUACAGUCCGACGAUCGCAGGAAGUAAAAACAAAUGGAAAUGCCUCGGAUAGUGGCAGGGGUGGGGGUUGCUAAGGAAAGGGUGGGAUGGGAGUGGGUAAAGAGUUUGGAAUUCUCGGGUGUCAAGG | 1.12
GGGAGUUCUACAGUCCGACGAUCGUCCUGUGCUACACAUCGUAUGUACCGAAUCGGGAAAAAAAGGGAAAAAGGGUUUGGGAAAGUAUUAUGUUACGCCGUUCGGAUCUGCACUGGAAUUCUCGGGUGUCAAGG | -0.48
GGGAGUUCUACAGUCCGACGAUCUCCUGUGCUACACAUCGUAUGUACCGAAUCGGGGUUUGGGGUUUUUUUGGGGUUUGGGGAAAGUAUUAUGUUACGCCGUUCGGAUCUGCAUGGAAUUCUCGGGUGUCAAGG | 1.05
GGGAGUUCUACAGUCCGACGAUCACUGGACCAGAUUGUUGAAAAAGGAAGACCAGCUCCUGGCUUCCAUCAUGGCGAUGGACCGGGAAAUGCAGUUCAAGAAAUCAUGAUUCCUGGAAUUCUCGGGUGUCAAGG | -1
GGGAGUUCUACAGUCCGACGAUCCACAGACAACACGCACCCACACAGACACAGAGGGAAGGGGUUGGGAUGGGCACAGGGUGCACAGCAGGGCGGGGUAGGACCCCAGCCCCUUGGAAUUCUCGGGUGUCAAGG | 1.93
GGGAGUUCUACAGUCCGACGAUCGCAGGAAGUAAAAACAAAUGGAAAUGCUUCGGAUAGUGGCAGGGGUGGGGGUUGCUAAGGAAAGGGUGGGAUGGGAGUGGGUAAAGAGCUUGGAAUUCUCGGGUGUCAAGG | 1.03

For quick reference, copied from above (series 1):
Strand | log fluorescence [z-score]
TTAGATCTCGGGTTTCGATTAGTGCTA | 6.48
TCAGGTTTCGACTATCGGTTAGTGCTA | 9.25
TCACAGTTGAGTTCTGTTACTGTGCTA | 0.155
GACGGTCTCGGACTGTGGACGTGCTAG | -0.318
GACGAACTGGGGTTTCGCGACGTGCTA | -0.105
